# Measured values collected from several papers.
# Each numbered part is a random draw from the data of one study; scales do not carry over between parts.
# UniProt P19525, sequence (whole entry, looked up): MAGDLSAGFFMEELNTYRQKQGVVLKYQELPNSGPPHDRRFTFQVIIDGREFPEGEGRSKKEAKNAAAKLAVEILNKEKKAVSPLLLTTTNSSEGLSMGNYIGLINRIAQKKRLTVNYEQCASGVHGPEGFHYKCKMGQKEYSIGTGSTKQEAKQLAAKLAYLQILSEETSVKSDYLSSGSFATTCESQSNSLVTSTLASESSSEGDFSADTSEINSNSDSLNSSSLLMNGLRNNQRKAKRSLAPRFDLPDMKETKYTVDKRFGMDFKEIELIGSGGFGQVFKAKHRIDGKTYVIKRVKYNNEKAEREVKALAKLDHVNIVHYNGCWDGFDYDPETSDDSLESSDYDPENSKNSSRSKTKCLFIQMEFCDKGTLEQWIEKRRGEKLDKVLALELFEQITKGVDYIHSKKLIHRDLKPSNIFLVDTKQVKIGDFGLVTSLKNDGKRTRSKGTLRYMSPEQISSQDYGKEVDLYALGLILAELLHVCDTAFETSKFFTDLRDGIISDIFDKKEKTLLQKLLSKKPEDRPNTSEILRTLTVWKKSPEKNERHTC
# UniProt O94921, sequence (whole entry, looked up): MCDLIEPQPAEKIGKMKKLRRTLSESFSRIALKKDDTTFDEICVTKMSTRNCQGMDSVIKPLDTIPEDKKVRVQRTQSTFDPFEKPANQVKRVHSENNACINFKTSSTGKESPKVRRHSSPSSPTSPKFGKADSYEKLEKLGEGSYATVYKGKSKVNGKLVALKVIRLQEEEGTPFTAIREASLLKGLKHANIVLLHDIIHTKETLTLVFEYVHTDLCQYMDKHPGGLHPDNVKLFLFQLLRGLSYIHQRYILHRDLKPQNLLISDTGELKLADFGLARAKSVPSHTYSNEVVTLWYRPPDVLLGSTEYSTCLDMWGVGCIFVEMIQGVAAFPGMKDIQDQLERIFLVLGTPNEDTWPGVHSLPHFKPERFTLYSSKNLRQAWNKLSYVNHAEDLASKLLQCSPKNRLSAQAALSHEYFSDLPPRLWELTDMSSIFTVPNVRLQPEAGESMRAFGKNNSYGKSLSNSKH
# UniProt O60674, sequence (whole entry, looked up): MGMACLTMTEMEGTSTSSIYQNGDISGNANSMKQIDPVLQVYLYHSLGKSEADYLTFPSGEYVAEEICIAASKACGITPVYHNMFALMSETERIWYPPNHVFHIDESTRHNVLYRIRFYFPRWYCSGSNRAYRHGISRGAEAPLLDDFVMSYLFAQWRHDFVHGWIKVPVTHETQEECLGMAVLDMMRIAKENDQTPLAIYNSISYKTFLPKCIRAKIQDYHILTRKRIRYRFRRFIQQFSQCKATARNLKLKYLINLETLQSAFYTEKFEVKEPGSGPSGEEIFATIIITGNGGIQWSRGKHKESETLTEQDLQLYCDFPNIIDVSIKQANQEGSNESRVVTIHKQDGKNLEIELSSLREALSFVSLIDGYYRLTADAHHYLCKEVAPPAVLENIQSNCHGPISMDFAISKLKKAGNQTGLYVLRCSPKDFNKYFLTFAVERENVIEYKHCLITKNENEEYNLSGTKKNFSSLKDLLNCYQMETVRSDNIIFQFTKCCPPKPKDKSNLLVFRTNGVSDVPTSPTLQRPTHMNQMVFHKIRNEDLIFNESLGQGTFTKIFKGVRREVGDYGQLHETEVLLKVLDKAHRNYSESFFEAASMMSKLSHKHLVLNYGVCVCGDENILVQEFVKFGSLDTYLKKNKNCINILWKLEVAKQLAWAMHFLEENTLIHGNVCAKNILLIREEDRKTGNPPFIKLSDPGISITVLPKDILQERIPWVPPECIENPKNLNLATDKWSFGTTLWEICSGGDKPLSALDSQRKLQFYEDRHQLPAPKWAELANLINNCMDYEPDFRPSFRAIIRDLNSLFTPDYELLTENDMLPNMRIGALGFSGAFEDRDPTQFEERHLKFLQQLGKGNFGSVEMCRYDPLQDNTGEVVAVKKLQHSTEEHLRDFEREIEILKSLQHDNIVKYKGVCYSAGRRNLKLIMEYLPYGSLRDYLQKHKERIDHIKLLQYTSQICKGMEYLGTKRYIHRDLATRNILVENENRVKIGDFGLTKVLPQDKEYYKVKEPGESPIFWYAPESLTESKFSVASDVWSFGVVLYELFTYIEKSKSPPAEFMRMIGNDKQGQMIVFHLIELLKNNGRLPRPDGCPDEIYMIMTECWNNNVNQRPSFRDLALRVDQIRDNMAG
# UniProt O14920, sequence (whole entry, looked up): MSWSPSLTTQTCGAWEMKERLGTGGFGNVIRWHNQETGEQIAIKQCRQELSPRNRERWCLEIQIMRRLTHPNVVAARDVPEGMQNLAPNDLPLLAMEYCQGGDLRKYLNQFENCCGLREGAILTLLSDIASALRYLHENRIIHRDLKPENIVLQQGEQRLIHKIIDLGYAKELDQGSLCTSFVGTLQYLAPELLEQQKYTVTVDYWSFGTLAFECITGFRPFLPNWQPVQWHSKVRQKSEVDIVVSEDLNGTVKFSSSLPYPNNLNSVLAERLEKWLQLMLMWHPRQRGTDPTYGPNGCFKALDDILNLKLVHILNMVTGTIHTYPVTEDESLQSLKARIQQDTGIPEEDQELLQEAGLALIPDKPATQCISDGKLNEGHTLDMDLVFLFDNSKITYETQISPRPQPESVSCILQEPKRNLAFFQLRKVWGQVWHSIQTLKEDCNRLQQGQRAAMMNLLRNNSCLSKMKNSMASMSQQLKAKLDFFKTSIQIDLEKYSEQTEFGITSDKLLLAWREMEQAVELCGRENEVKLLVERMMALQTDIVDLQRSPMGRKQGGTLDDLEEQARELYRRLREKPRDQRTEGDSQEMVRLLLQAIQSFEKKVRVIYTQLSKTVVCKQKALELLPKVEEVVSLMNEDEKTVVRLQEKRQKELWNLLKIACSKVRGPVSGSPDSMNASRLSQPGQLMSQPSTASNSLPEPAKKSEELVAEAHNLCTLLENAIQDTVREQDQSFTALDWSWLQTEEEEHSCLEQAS
# UniProt Q9Y6M4, sequence (whole entry, looked up): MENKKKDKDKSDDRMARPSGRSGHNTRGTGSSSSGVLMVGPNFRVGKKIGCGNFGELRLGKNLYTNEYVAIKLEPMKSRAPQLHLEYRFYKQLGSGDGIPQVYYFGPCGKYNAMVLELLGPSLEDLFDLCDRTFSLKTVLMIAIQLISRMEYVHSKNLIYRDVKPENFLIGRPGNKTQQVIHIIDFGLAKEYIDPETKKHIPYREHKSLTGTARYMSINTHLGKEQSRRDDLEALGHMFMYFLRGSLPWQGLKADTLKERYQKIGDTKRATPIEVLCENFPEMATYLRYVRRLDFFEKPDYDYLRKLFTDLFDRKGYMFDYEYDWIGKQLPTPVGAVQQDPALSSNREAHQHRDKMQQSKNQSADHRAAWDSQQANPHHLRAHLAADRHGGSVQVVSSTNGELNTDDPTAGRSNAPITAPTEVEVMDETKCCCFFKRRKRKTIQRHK

# Block 1 — effect on: cell-free assay; technique: competition with immobilised ligand; concentration: 0.1 µM
# Compound: C[C@H](c1ccnc(Nc2nc3ccc(-c4cc(N(C)C)ncn4)cc3[nH]2)c1)N1CCN(C(=O)CC(F)(F)F)CC1
target,remaining binding [%]
"Activated CDC42 kinase 1 (TNK2, Homo sapiens, UniProt Q07912)",100
"Epidermal growth factor receptor (EGFR, Homo sapiens, UniProt P00533)",97
"Casein kinase I isoform gamma-3 (CSNK1G3, Homo sapiens, UniProt Q9Y6M4)",100
"eIF-2-alpha kinase GCN2, C-terminal kinase domain (EIF2AK4, Homo sapiens, UniProt Q9P2K8, S808G)",58
"Tyrosine-protein kinase ABL1, phosphorylated (ABL1, Homo sapiens, UniProt P00519, T315I)",89
"Interferon-induced, double-stranded RNA-activated protein kinase (EIF2AK2, Homo sapiens, UniProt P19525)",100
"Eukaryotic translation initiation factor 2-alpha kinase 1 (EIF2AK1, Homo sapiens, UniProt Q9BQI3)",100
"Inhibitor of nuclear factor kappa-B kinase subunit beta (IKBKB, Homo sapiens, UniProt O14920)",99
"Cyclin-dependent kinase 14 (CDK14, Homo sapiens, UniProt O94921)",100
"Tyrosine-protein kinase JAK2, JH1 (JAK2, Homo sapiens, UniProt O60674)",100

# Block 2 — host: human; sample: plasma; route: oral
# Compound: COc1ccc(-c2c(Nc3ccccn3)[nH]c3c(C4=CCCCC4)c(-c4ccccc4)nn3c2=O)cc1
dose,AUC(tau) extrapolated share
100 mg QD,0%
400 mg QD,0%
150 mg QD,0%

# Block 3 — effect on: enzyme activity; mode: inhibitor; concentration: 0.5 µM; relative to: control
# Target: Casein kinase I isoform gamma-1 (CSNK1G1, Homo sapiens, UniProt Q9HCP0)
# UniProt Q9HCP0, sequence (whole entry, looked up): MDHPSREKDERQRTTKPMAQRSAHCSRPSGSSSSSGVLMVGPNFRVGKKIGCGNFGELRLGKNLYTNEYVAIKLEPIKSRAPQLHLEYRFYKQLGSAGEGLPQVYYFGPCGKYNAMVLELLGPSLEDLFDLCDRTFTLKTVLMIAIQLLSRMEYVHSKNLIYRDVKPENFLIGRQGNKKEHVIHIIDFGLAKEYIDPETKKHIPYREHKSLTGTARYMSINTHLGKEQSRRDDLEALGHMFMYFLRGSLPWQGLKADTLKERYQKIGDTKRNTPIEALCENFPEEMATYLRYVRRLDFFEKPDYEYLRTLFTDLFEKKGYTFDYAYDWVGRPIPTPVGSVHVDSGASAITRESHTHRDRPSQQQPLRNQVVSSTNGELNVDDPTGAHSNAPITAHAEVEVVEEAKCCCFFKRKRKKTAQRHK
SMILES,remaining activity
Nc1nccc(-c2c(-c3ccc(F)cc3)ncn2C2CCNCC2)n1,83.1%
Cc1ccc(NC2=CC(=O)c3sc(C)nc3C2=O)cc1,102%
Cc1cc(Nc2nc(-c3ccccc3)nc3ccccc23)n[nH]1,75.7%
NC(=O)c1ccc(N(C(N)=O)c2c(F)cccc2F)nc1-c1ccc(F)cc1F,102%
CSc1nc(-c2ccnc(N[C@@H](C)c3ccccc3)c2)c(-c2ccc(F)cc2)[nH]1 (racemic),67.2%
CC(C)(C)n1nc(Cc2cccc3ccccc23)c2c(N)ncnc21,92.9%
O=C1Cc2c([nH]c3ccc([N+](=O)[O-])cc23)-c2ccccc2N1,100%
COc1ccc(S(=O)(=O)N(CCO)c2ccccc2CN(C)CC=Cc2ccc(Cl)cc2)cc1,105%
O=S(=O)(NCCNC/C=C/c1ccc(Br)cc1)c1cccc2cnccc12,97.2%
CC#CC(=O)Nc1cc2c(Nc3ccc(F)c(Cl)c3)ncnc2cn1,95.5%
CC(=O)c1ccc(N2CCOCC2)cc1O,91.8%
Nc1ncnc2c1cnn2-c1ccccc1,94.8%
CC[n+]1c(/C=C/N(C)c2ccccc2)n(-c2ccccc2)c2ccc(-c3nc4ccccc4s3)cc21,104%
COc1cc(Nc2c(C#N)cnc3cc(OCCCN4CCN(C)CC4)c(OC)cc23)c(Cl)cc1Cl,95.7%
N#CC(=C(N)Sc1ccc(N)cc1)c1ccccc1C(F)(F)F,89%
Fc1ccc(-c2nc3n(c2-c2ccncc2)CCS3)cc1,86.6%
CCCC(=O)Oc1ccc2[nH]c(C(=O)c3cc4ccccc4[nH]3)cc2c1,76.1%
Oc1ccc(Nc2nc(-c3ccc(Cl)cc3)cs2)cc1,94.5%
CCc1[nH]c(-c2ccc(OC)cc2)nc1-c1ccncc1,101%

# Block 4 — host: mouse; sample: microsomes or S9; concentration: 2 µM; time: 0.5 h
SMILES,remaining compound [%]
C=CCOc1ccccc1C1CC(O)=Nc2c1c(C)nn2-c1ccc(O)nn1 (stereo not shown),22.1
CCc1nc(C)c2c(n1)N(CCc1c(C)noc1C)C(=O)CC2,0.241
CCC(=O)c1ccc(OCCCn2cnc3ccccc32)cc1,2.9
CCOC(=O)c1c(C)c(CCC(=O)NCCN2CCCCC2)n(C)c1C,32.6
COc1ccccc1Nc1ccc(-n2ccnc2-c2ccncc2)cc1,27.1
CCn1nccc1-c1cc(C(=O)O)c2ccc(C)c(C)c2n1,71.6
COCCNC(=O)NC1(c2nc(C)no2)CCCCC1,94.1
Cc1nn2c(=O)c(CCC(=O)NC(C)(C)c3noc(C(C)(C)C)n3)c(C)nc2[nH]1,86.5
NCCN1CCOC(CC(=O)Nc2cc(Cl)cc(Cl)c2)C1=O (stereo not shown),70.2
Ic1ccc(-n2ccnc2)cc1,55.2
CNCc1cccc(Br)c1OCCS(C)(=O)=O,70
COc1ccc2nc(C3=CCCN(C)C3)n(C)c2c1,74.5
CC(C)Cc1ccc(C(C)C(=O)Nc2ccc(O)cc2C(=O)O)cc1 (stereo not shown),70.8
Nc1cc(C(=O)OCCC2CCOC2=O)cnc1Cl (stereo not shown),0.0277

# A few entries again (block 4):
SMILES,remaining compound [%]
C=CCOc1ccccc1C1CC(O)=Nc2c1c(C)nn2-c1ccc(O)nn1 (stereo not shown),22.1
CCc1nc(C)c2c(n1)N(CCc1c(C)noc1C)C(=O)CC2,0.241
CCC(=O)c1ccc(OCCCn2cnc3ccccc32)cc1,2.9
CCOC(=O)c1c(C)c(CCC(=O)NCCN2CCCCC2)n(C)c1C,32.6
COc1ccccc1Nc1ccc(-n2ccnc2-c2ccncc2)cc1,27.1
